Experimental data gathered from unrelated publications.
Each line is one published result; not all experiments were run side by side. Numbers after ± are the reported error.
Target: Cholinesterase (BCHE, Equus caballus, UniProt P81908)
Sequence of UniProt P81908 (whole entry, looked up): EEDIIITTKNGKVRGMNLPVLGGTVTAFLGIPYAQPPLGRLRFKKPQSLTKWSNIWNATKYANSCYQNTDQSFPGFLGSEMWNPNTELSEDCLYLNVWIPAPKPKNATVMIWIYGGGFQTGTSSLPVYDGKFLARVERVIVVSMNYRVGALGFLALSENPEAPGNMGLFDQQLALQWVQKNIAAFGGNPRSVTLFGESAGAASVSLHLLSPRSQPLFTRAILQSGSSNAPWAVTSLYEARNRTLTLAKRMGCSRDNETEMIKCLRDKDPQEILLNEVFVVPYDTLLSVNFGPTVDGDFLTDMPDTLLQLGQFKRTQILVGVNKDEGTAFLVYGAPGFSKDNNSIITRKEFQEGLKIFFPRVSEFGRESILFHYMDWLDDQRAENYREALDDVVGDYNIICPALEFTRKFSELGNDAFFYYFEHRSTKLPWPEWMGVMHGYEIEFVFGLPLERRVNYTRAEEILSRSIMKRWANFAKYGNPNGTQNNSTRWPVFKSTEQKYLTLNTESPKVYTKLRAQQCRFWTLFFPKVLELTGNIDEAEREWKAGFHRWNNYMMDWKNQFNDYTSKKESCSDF
Action: inhibitor

| Structure (SMILES) | assay | test system | setting | measurement | result |
| --- | --- | --- | --- | --- | --- |
| O=C(/C=C/c1cccc(Cl)c1)c1cc2ccccc2oc1=O | enzyme activity | – | 10 µM | remaining activity | 55.8% |
| O=CN1CCc2cc3c(c4c2C1Cc1ccccc1-4)OCO3 (single isomer, unassigned; (-)) | enzyme activity, Ellman | – | up to 0.1 µg/mL | IC50 | inactive |
| C=CCCCCCCCCCOCc1cn(CC2=CC[C@@H]3C(C(=O)OC)=CO[C@@H](O)[C@H]23)nn1 | – | horse serum BuChE | 10000 µM | inhibition | 31.51 ± 0.14% |
| COc1ccc(Nc2c3c(nc4cc(C)ccc24)CCCC3)nc1 | enzyme activity | – | 50 µM | inhibition | -78.2% |
| COC(=O)C1=CO[C@@H](OC(C)=O)[C@@H]2C(Cn3cc(COCc4ccc(OC)cc4)nn3)=CC[C@H]12 | – | horse serum BuChE | 10000 µM | inhibition | 42.91 ± 0.2% |
| COc1cc2c(cc1O)[C@@H]1Cc3ccc(OC(C)=O)c(OC)c3CN1CC2 | enzyme activity, Ellman | – | up to 0.1 µg/mL | IC50 | inactive |
| O=C(/C=C/c1ccc(Br)cc1)c1cc2ccccc2oc1=O | enzyme activity | – | 10 µM | remaining activity | 85.4% |
| COc1ccnc(Nc2c3c(nc4ccccc24)CCCC3)c1 | enzyme activity | – | 100 µM | inhibition | 110% |
| O=C(/C=C/c1ccccc1F)c1cc2ccccc2oc1=O | enzyme activity | – | 10 µM | remaining activity | 75% |
| COC(=O)C1=CO[C@@H](OC(C)=O)[C@@H]2C(Cn3cc(CCBr)nn3)=CC[C@H]12 | enzyme activity, Ellman Lineweaver-Burk | – | together with: butyrylthiocholine iodide | Ki | 30 µM |
| COc1ccnc(Nc2c3c(nc4ccc(Cl)cc24)CCCC3)c1 | enzyme activity | – | 50 µM | inhibition | < -200% |
| COC(=O)C1=CO[C@@H](O)[C@@H]2C(Cn3cc(CO[Si](c4ccccc4)(c4ccccc4)C(C)(C)C)nn3)=CC[C@H]12 | – | horse serum BuChE | 10000 µM | inhibition | 24.94 ± 0.23% |
| O=C(/C=C/c1cccc(F)c1)c1cc2ccccc2oc1=O | enzyme activity | – | 10 µM | remaining activity | 55.7% |
| Cc1cccnc1Nc1c2c(nc3ccccc13)CCCC2 | enzyme activity | – | 100 µM | inhibition | 62.4% |
| COc1cc2c(cc1OC(C)=O)C1Cc3ccc(OC(C)=O)c(OC)c3CN1CC2 (stereo not shown) | enzyme activity, Ellman | – | up to 0.1 µg/mL | IC50 | inactive |
| Cc1ccc(Nc2c3c(nc4ccccc24)CCCC3)cc1 | enzyme activity | – | 100 µM | inhibition | -36.1% |
| COC(=O)C1=CO[C@@H](O)[C@@H]2C(Cn3cc(CON4C(=O)c5ccccc5C4=O)nn3)=CC[C@H]12 | – | horse serum BuChE | 10000 µM | inhibition | 42.3 ± 0.64% |
| O=C(/C=C/c1cccc(Br)c1)c1cc2ccccc2oc1=O | enzyme activity | – | 10 µM | remaining activity | 63.2% |
| c1ccc2nc(Nc3c4c(nc5ccccc35)CCCC4)ccc2c1 | enzyme activity | – | 50 µM | inhibition | 105% |

Repeated from above:
| Structure (SMILES) | assay | test system | setting | measurement | result |
| --- | --- | --- | --- | --- | --- |
| COC(=O)C1=CO[C@@H](OC(C)=O)[C@@H]2C(Cn3cc(COCc4ccc(OC)cc4)nn3)=CC[C@H]12 | – | horse serum BuChE | 10000 µM | inhibition | 42.91 ± 0.2% |
| COc1cc2c(cc1O)[C@@H]1Cc3ccc(OC(C)=O)c(OC)c3CN1CC2 | enzyme activity, Ellman | – | up to 0.1 µg/mL | IC50 | inactive |
| O=C(/C=C/c1ccc(Br)cc1)c1cc2ccccc2oc1=O | enzyme activity | – | 10 µM | remaining activity | 85.4% |
